Experimental data gathered from unrelated publications.
Each line is one published result; not all experiments were run side by side. “And” joins repeats or separate records; there may be more than shown. Numbers after ± are the reported error.
B1: LexA; sequence looked up; chain MKALTARQQEVFDLIRDHISQTGMPPTRAEIAQRLGFRSPNAAEEHLKALARKGVIEIVSGASRGIRLLQEEEEGLPLVGRVAAGEPLLAQQHIEGHYQVDPSLFKPNADFLLRVSGMSMKDIGIMDGDLLAVHKTQDVRNGQVVVARIDDEVTVKRLKKQGNKVELLPENSEFKPIVVDLRQQSFTIEGLAVGVIRNGDWL

O=Cc1ccc(CO)o1 — EC50 (hydroxyl radical scavenging, in vitro; 50% scavenging): > 20 µM
CC1CNc2c(cccc2S(=O)(=O)N[C@@H](CCCNC(=N)N)C(=O)N2CC[C@@H](C)C[C@@H]2C(=O)O)C1 (some centres unmarked) — EC50 (platelet activation, inhibitor, ATP release; mouse platelet-rich plasma; 20% plasma, with: thrombin): 0.007 µM
COc1cc(-c2cn(-c3ccc(C(C)(C)C)cc3)nn2)[nH]c1/C=N/C12CC3CC(CC(C3)C1)C2 — EC50 (chloride/lactate exchange, ISE chloride efflux; POPC vesicles 0.5 mM; 300 s, pH 7.2, with: sodium lactate 40 mM): 0.008 ± 0.001 µM
CCN(CC)CCNC(=O)c1c(C)[nH]c(/C=C2\C(=O)Nc3ccc(F)cc32)c1C — EC50 (subintestinal vessel angiogenesis, inhibitor; Danio rerio embryo; 96 hpf, 50% vessel length reduction): 0.5 µM
OC[C@H]1O[C@@H](Oc2cc3c(O)cc(O)cc3[o+]c2-c2cc(O)c(O)c(O)c2)[C@H](O)[C@@H](O)[C@@H]1O.[Cl-] — EC50 (hydroxyl radical scavenging, in vitro; 50% scavenging): 0.64 ± 0.06 µM
CC[C@H](C)[C@@H]1NC(=O)[C@H](Cc2ccc(O)cc2)NC(=O)[C@@H](N)CSSC[C@@H](C(=O)N2CCC[C@H]2C(=O)N[C@@H](CC(C)C)C(=O)NCC(N)=O)NC(=O)[C@H](CC(N)=O)NC(=O)[C@H](CCC(N)=O)NC1=O — EC50 (contraction amplitude; pregnant human myometrium strips): 0.00114 ± 0.00056 µM
N[C@@H](CO)C(=O)O — EC50 (allosteric inhibitor, NADH absorbance; pH 9.0, Hill fit, with: substrate 10 mM, NAD+ 1 mM): 1600 ± 100 µM
NCCCC[C@@H]1NC(=O)[C@@H](Cc2c[nH]c3ccccc23)NC(=O)[C@H](c2ccccc2)NC(=O)[C@@H]2C[C@@H](OC(=O)NCCN)CN2C(=O)[C@H](Cc2ccccc2)NC(=O)[C@H](Cc2ccc(OCc3ccccc3)cc2)NC1=O — EC50 (refers to: GH AUC; healthy volunteers, plasma; subcutaneous, with: GHRH): 0.33 ng/mL and 0.3 ng/mL
COC(=O)CC(O)(CC(=O)OC)C(=O)O — EC50 (hydroxyl radical scavenging, in vitro; 50% scavenging): > 20 µM
Nc1cc2ccccc2c2ccccc12 — EC50 (developmental toxicity; zebrafish (Danio rerio) embryos; 6 to 120 hpf): 8.68 µM
B1 (LexA) — EC50 (nucleosome unwrapping, FRET; wild type nucleosome; pH 7.5): 1.9 ± 0.4 µM
COc1cc2nccc(Oc3ccc(NC(=O)C4(C(=O)Nc5ccc(F)cc5)CC4)cc3)c2cc1OC — EC50 (subintestinal vessel angiogenesis, inhibitor; Danio rerio embryo; 96 hpf, 50% vessel length reduction): 0.1 µM
OC[C@H]1O[C@@H](Oc2cc3c(O)cc(O)cc3[o+]c2-c2ccc(O)c(O)c2)[C@H](O[C@@H]2OC[C@@H](O)[C@H](O)[C@H]2O)[C@@H](O)[C@@H]1O — EC50 (hydroxyl radical scavenging, in vitro; 50% scavenging): 0.69 ± 0.08 µM
CCCCCCNC(=O)NCCC/C=C\CCCCCCC(=O)O — EC50 (vasorelaxation; bovine coronary artery rings; with: U46619): 3.5 µM
CN(C)CCNC(=O)[C@@H](N)CSSC[C@H](N)C(=O)NCCN(C)C — EC50 (L-cystine solubility; 72 h, 20 °C): 0.163 µM
COc1cc(-c2cn(-c3ccc(C(C)(C)C)cc3)nn2)[nH]c1/C=N/C1CCCC1 — EC50 (chloride/lactate exchange, ISE chloride efflux; POPC vesicles 0.5 mM; 300 s, pH 7.2, with: sodium lactate 40 mM): 0.034 ± 0.004 µM
c1ccc2c(c1)[nH]c1ccccc12 — EC50 (developmental toxicity; zebrafish (Danio rerio) embryos; 6 to 120 hpf): 15.2 µM
CC1(C)CNc2cc(NC(=O)c3cccnc3NCc3ccncc3)ccc21 — EC50 (subintestinal vessel angiogenesis, inhibitor; Danio rerio embryo; 96 hpf, 50% vessel length reduction): 0.25 µM
COc1cc2ncnc(Nc3ccc(F)c(Cl)c3)c2cc1NC(=O)/C=C/CN1CCCCC1 — EC50 (cell proliferation, inhibitor; Ba/F3 expressing EGFR V769_D770insASV, Mus musculus): 0.5 ± 0.2 µM
CC(C)(C)OC(=O)N1CCC(OCc2nc(-c3ccncc3)no2)CC1 — EC50 (short-circuit current reduction, agonist, Ussing chamber; mouse descending colon mucosa; basolateral addition, with: VIP 10 nM): 4.2 µM
COc1cc(NC(=O)c2cc(-c3cccc(O)c3)on2)cc(OC)c1OC — EC50 (membrane potential, rhodamine uptake; isolated mouse liver mitochondria): > 100 µM
COC(=O)c1ccc(O)c(O)c1 — EC50 (hydroxyl radical scavenging, in vitro; 50% scavenging): 1.8 ± 0.16 µM
COc1ccc(-c2cc(C(=O)Nc3cc(Cl)ccc3C)no2)cc1O — EC50 (membrane potential, rhodamine uptake; isolated mouse liver mitochondria): > 100 µM
CC(=O)OCc1ccc(C=O)o1 — EC50 (hydroxyl radical scavenging, in vitro; 50% scavenging): > 20 µM
[H]/N=C(/N)c1ccc(NCc2nc3cc(C(=O)N(CCC(=O)O)c4ccccn4)ccc3n2C)cc1 — EC50 (platelet activation, inhibitor, refers to: ATP release; human platelet-rich plasma; 20% plasma, with: thrombin): 0.031 µM
COC(=O)c1cc(O)c(O)c(O)c1 — EC50 (hydroxyl radical scavenging, in vitro; 50% scavenging): 0.33 ± 0.04 µM
O=[N+]([O-])c1ccc2ccc3c([N+](=O)[O-])ccc4ccc1c2c43 — EC50 (developmental toxicity; zebrafish (Danio rerio) embryos; 6 to 120 hpf): 0.88 µM
OC[C@H]1O[C@@H](Oc2cc3c(O)cc(O)cc3[o+]c2-c2ccc(O)c(O)c2)[C@H](O)[C@@H](O)[C@@H]1O — EC50 (hydroxyl radical scavenging, in vitro; 50% scavenging): 0.13 µM
c1cnc2cc3c(cc2n1)[C@@H]1CNC[C@H]3C1 — EC50 (dopamine release, releaser, refers to: [3H]dopamine; rat striatal synaptosomes): 0.05 µM

A few entries again:
CCCCCCNC(=O)NCCC/C=C\CCCCCCC(=O)O — EC50 (vasorelaxation; bovine coronary artery rings; with: U46619): 3.5 µM
O=Cc1ccc(CO)o1 — EC50 (hydroxyl radical scavenging, in vitro; 50% scavenging): > 20 µM
COc1cc(NC(=O)c2cc(-c3cccc(O)c3)on2)cc(OC)c1OC — EC50 (membrane potential, rhodamine uptake; isolated mouse liver mitochondria): > 100 µM
OC[C@H]1O[C@@H](Oc2cc3c(O)cc(O)cc3[o+]c2-c2cc(O)c(O)c(O)c2)[C@H](O)[C@@H](O)[C@@H]1O.[Cl-] — EC50 (hydroxyl radical scavenging, in vitro; 50% scavenging): 0.64 ± 0.06 µM
